Published values from different studies.
Each numbered part is a random draw from the data of one study; scales do not carry over between parts.

Set 1 — technique: protein binding microarray; molecule type: double-stranded DNA, one strand shown; sample: in vitro; concentration: not given; relative to: not given; direction: higher = stronger binding; quantity: E-score
Target: Histone acetyltransferase KAT6A, winged helix 2, GST fusion (KAT6A, Homo sapiens, UniProt Q92794, residues 85-181)
Notes: 8-mer, flanks averaged, mean of 2 arrays, mostly near background
Construct (chain): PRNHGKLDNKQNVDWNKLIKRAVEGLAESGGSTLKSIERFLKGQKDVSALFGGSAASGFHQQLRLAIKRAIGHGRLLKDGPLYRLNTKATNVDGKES
Sequence = CCAAGCCG; value = 0.0337
Sequence = AGGGTACT; value = -0.122
Sequence = ACCCCATG; value = -0.0323
Sequence = ATTTGTCA; value = -0.125
Sequence = CCAGCTCA; value = 0.111
Sequence = AAATTACC; value = -0.128
Sequence = ATGGCGCG; value = 0.0554
Sequence = ACCCGCGT; value = 0.0394
Sequence = ACCTCGTA; value = -0.131
Sequence = AGCAGACG; value = 0.00988
Sequence = ACCCCCAT; value = -0.134
Sequence = GTTAACAA; value = -0.0387
Sequence = CCTTTGTA; value = -0.0604
Sequence = ACCCTCCC; value = 0.224
Sequence = AGTGAGAA; value = 0.191
Sequence = ATCAAGAC; value = 0.0616
Sequence = ACAAAGGG; value = -0.0438

Set 2 — technique: RNA Bind-n-Seq; molecule type: RNA; sample: in vitro; concentration: not given; notes: RNA with constant flanks, ends assumed; relative to: input RNA pool; direction: higher = stronger binding; quantity: bound/input enrichment
Target: RING finger protein unkempt homolog, zinc fingers 1-6, GST-SBP tag (UNK, Homo sapiens, UniProt Q9C0B0, residues 30-357)
UniProt Q9C0B0, sequence (30-357, looked up): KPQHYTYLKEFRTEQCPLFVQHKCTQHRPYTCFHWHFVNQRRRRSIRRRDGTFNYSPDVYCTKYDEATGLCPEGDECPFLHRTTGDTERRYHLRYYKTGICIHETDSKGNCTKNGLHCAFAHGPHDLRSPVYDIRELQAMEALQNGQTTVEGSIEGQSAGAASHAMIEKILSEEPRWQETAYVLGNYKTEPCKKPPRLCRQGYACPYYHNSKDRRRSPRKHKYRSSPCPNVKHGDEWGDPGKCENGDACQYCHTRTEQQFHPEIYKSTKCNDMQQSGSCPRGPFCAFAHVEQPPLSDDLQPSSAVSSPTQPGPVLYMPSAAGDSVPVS
Constant ends, left off below: GGGAGUUCUACAGUCCGACGAUC … CAACAGAGGAUUGAGCAUCA
Sequence = GCACGUCAGAAGAUGACCCUUGAGUCAUUCUCUAAGGUGCCGCCUUUGAUUGCAAGCUUUGUCCGGUCGAAGAGAAAGGAAGACUCUCCGAACCUAAGGGAAGCGUUGGAGAACGAAUUC; value = 0.103 ratio
Sequence = UCCCCUUAUGACCAGGCAGCUUGGAUCUUAAAAGCAAGAGCGCUAACAGAAAUGGUAUACACCGAUGAAAUUGAUGUAGAUCAGGAAGGAAUUGCAGAAAUGAUGCUGGAUGAAAAUGCU; value = 0.262 ratio
Sequence = CCUGACAGUAUGCUGGCGCACAUGUUCAAGGACAAAGGUGUCUGGGGAAAUAAGCAAGAUCACCGAGGAGCAUUCUUAAUUGACCGAAGUCCUGAGUACUUUGAACCUAUUUUGAACUAC; value = 0.148 ratio
Sequence = GAGCUGCAGGAACCAGACUGGGGGCGAGCUGAGCACCUGUAGUCAAUCACACGCAGCUUUCCGGUUUGUUUGAAUAAGAGAUCUGACCUGACCGGCCCAACUGUACAACUCUUCAAGGAA; value = 0.261 ratio
Sequence = AGAACACAGUUAUGGGUCGCAAGAAGAAGAAGCAGCUGAAGCCGUGGUGCUGGUAUUGUAACCGAGAUUUUGAUGAUGAGAAGAUCCUUAUUCAGCACCAAAAAGCAAAGCAUUUUAAAU; value = 0.351 ratio
Sequence = CACCAUUCUUUGUUUCCUAGGGAGUGACUGUCAAGUACUAAUUCCUCAAGAUGGUAUUUGUCCGUCCAAAAUGUUAAGCUUUUUAAAAAAAAAAUGUUACUUGAUUUCUUUUGAUUUGUA; value = 0.705 ratio
Sequence = GCUGAAGAUGACAGCAAAAUUGAUUCAUGAAGUUUUUUGCCUCCCACGUUGGGAAGUCAUCCGUUGAACUAUUUUCACAUUGGCCCCCCACACAGGCCACUCUCUUCCCUUUCUUGGUGA; value = 0.245 ratio
Sequence = CUCCAAGUUCGAAGCAUUCAGCAAGUGGUGGCAAGGCAGAGCCACCAGAAGAGGGCACCCCGUUUCCAUGACAAAUAUGGGAAUGCUAUAUUAGCAGGUGGAGCCAUCUUCUGUGUUUCU; value = 0.164 ratio
Sequence = CAUGUCAUGCAUUUUUCUAAAUGGGCAGUUUCCAGUGGCAGCAGUACAGCAUUACUUUACCGCAAACGACUGAUUACAUACCGGUUACGGCACCUCCUUCGUGCAAGGUGUGAUGCAUCC; value = 0.132 ratio
Sequence = CUGAAGCCAGCCAAUGUCUUCCUGGACAGCAAACACAAUGUCAAGCUGGGGGACUUUGGACCCGCCCGAAUAUUAAAUCACGACACGAGUUUUGCAAAAACGUUUGUUGGCACACCCUAU; value = 0.17 ratio
Sequence = GCACAGAUUCAUCAGUUCAGAGAGGAUUCAUUGGAUAGUGUUCUUUUUCUCAAAAAGAUCGACCGAUGCUGGCAAAACCACUGUAGGCAAAUGAUAAUGAUCAGGAGCAUUUUUUUGUUU; value = 0.282 ratio

Set 3 — technique: competition protein-binding microarray; molecule type: double-stranded DNA, one strand shown; sample: in vitro; concentration: 2 µM; together with: Cbf1 competitor, 0.05 µM; direction: higher = stronger binding; quantity: fluorescence intensity; constant ends, left off below: … GTCTTGATTCGCTTGACGCTGCTG
Target: Phosphate system positive regulatory protein PHO4, full length, GST-tagged (PHO4, Saccharomyces cerevisiae, UniProt P07270, residues 1-312)
Notes: whole 60-bp probe, lowest competitor level
Construct (chain): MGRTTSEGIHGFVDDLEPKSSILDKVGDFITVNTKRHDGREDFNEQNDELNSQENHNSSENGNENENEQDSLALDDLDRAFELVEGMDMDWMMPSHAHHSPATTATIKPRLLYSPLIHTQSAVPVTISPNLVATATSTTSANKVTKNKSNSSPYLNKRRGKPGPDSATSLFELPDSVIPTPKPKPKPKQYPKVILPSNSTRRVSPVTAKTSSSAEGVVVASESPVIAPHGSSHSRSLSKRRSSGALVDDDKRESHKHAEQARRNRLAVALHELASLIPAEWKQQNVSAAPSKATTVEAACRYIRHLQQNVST
Sequence = TGCGCAACAACTTGAGCTGTGGGTGTATGTCTAGAA; value = 4310 a.u.
Sequence = TGCGCAACAACTTTTCACGTGGCTTTATGTCTAGAA; value = 15200 a.u.
Sequence = CTTTCCCGATCTTGTCACGACACTTTAGCACATTTG; value = 5840 a.u.
Sequence = CACCGATTGCGTAATCTCCTGTACACGGTTCAAGAA; value = 4770 a.u.
Sequence = TAGTGCCTCGGAGATACCGTGATGGAATGGGATCGG; value = 3570 a.u.
Sequence = GGATAGGGTCTTTGGCATGTGCGGTGCTTACCCGGA; value = 10500 a.u.
Sequence = CTAACGAAGGTTTGCATGGTGGGTGACAAGCCAAGT; value = 5090 a.u.
Sequence = CATTCAATTCCGAGTCACGTGGGTAAATGATAATGG; value = 18400 a.u.
Sequence = CCGAGGTTTGTTGGGTACGTGCAAAAGCGCCTGGGC; value = 6150 a.u.
Sequence = TTGAGCTTGAAAGAGTGCGTGCAAATCATTCAATCA; value = 7300 a.u.
Sequence = CTTTCCCGATCTTGCATAGTGGGTGTAGCACATTTG; value = 5040 a.u.
Sequence = CCCCTGTGCGGCTACGTCGTGCCGACCCACCATTTG; value = 8510 a.u.
Sequence = AGGCCAGTTGCTCAACACGCTACAAGAAGGCAGATG; value = 6290 a.u.
Sequence = TGTGCGTTATGCTTCCATGTGACGCTACATCTATTG; value = 6650 a.u.
Sequence = ATATAGACAAAAGTGGCCGTGACGGGTAAAAAGGAT; value = 4440 a.u.
Sequence = ACAGGACTTCCAGGACACGTTTCTGGATTCATCCCT; value = 12800 a.u.
Sequence = CCTTGTTCGAGTTTGGACGTGCGGAGAATCTACCCA; value = 5390 a.u.
Sequence = CTTCCTCTTCGAACACACGTGCTTTACCCTTGAAGT; value = 19200 a.u.
Sequence = CTAACGAAGGTTTTTCACGTGATTTACAAGCCAAGT; value = 10700 a.u.
Sequence = GCCAGGGATCCTCACCACGTCGCCGTCCTGTAATCC; value = 5380 a.u.
Sequence = TTCTGAATGGTGTTGGTCGTGGCCGTACCGATTTAT; value = 6560 a.u.
Sequence = AAGTTTGCTGAGGACATCGTGACTCGCCGCAAGCTA; value = 5690 a.u.
Sequence = ATCAACATCGGCCTCCCCGTGCTAATATGTTAACAG; value = 13300 a.u.
Sequence = ACAATGGATCCAAATCATGTGCCAGGGAGTGAACCC; value = 9290 a.u.
Sequence = TGGTAATTCAACCGTCACGGGTGTAGAAAATGGTGA; value = 6640 a.u.

Set 4 — technique: universal PBM; molecule type: double-stranded DNA, one strand shown; sample: in vitro; concentration: 600 nM; direction: higher = stronger binding; quantity: E-score
Target: Sal-like protein 4, full length isoform A (SALL4, Homo sapiens, UniProt Q9UJQ4, residues 1-1053)
UniProt Q9UJQ4, sequence (whole entry, looked up): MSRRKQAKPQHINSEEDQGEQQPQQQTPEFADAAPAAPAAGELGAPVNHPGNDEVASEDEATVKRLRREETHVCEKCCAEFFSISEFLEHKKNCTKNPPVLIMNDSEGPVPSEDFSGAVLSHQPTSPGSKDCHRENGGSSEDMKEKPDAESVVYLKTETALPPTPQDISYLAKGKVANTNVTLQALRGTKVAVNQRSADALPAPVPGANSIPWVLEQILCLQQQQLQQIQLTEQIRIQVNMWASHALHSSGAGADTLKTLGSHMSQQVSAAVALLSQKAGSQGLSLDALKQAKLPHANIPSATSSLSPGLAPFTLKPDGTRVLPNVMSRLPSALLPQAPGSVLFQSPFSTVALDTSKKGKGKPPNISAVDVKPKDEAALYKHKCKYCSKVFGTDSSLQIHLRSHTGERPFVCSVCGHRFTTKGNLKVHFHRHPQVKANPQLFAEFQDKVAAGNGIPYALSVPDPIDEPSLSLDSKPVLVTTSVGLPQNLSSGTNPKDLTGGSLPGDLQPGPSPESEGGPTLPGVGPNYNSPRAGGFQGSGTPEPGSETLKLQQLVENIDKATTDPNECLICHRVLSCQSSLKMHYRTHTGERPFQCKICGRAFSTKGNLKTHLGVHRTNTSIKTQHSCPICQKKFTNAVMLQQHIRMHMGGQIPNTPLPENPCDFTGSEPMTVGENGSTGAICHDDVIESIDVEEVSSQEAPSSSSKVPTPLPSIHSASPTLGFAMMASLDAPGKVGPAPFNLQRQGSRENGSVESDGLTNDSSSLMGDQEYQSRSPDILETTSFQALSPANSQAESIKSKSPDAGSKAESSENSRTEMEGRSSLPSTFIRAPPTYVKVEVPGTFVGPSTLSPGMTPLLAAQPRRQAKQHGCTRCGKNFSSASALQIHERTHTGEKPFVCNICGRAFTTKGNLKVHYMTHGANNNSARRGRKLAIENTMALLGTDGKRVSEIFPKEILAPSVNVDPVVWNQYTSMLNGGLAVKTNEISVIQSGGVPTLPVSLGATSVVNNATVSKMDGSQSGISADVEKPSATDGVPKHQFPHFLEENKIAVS
Notes: 8-mer, flanks averaged, mean of replicates
Sequence = GGCGACCA; value = -0.282
Sequence = ATCGACGC; value = -0.0632
Sequence = CACACTCC; value = -0.116
Sequence = CTCCAAGC; value = -0.191
Sequence = CGCGGCTA; value = -0.278
Sequence = AACACGAA; value = 0.238
Sequence = GGCAGAAA; value = 0.0619
Sequence = AGGAGAGG; value = -0.0449
Sequence = ACACATCA; value = 0.0181
Sequence = CTCATGGA; value = 0.0202
Sequence = CGAGTCTA; value = -0.102
Sequence = CCGCGTCG; value = -0.324
Sequence = GTTTTCGA; value = -0.0637
Sequence = CAGTACTA; value = 0.142
Sequence = CCGGCAGA; value = -0.349
Sequence = ATGTTAAA; value = 0.345
Sequence = CAACAGTA; value = -0.0363

Set 5 — technique: RNA Bind-n-Seq; molecule type: RNA; sample: in vitro; concentration: 365 nM; relative to: no-protein control; direction: higher = stronger binding; quantity: RBNS enrichment (R)
Target: RNA binding protein fox-1 homolog 2, RRM domain, GST-SBP tag (RBFOX2, Homo sapiens, UniProt O43251-10, residues 100-194)
Notes: natural RNA segment, single round, ends assumed
Constant ends, left off below: GGGAGUUCUACAGUCCGACGAUC … UGGAAUUCUCGGGUGCCAA
Residues (chain): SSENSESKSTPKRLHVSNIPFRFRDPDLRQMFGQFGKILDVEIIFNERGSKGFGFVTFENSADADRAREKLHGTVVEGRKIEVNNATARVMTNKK
Sequence = AGGGCCACUUGAAAGCAUGAAGACCAGUUAUAUAGGGAACAGGUUUCUCUCAGUGGCACAUUUUGCUUUUUCUGAGCCCCAAAUACAUUGCCUGGGCAUGAACAUUGUUA; value = 0.93
Sequence = GCUUUUCCUUUUAGGUUUAAGUCCUGUCUGUCUGUAAGGCGUAGAAUCUGUCCGUCUGUAAGGCGUAGAAUGAGGGUUGUUAAUCCAUCACAAGCAAAAGGUCAGAACAG; value = 0.89
Sequence = UCCCUAACCCCUUGUCCGCAAGGGGUGAUGGCCGGCUGGUUGUGGGCACUGGCGGUCAAGUGUGGAGGAGAGGGGUGGAGGCUGCCCCAUUGAGAUCUUCCUGCUGAGUC; value = 0.603
Sequence = GCUCGGGCUGGUUAAUGACUUGCUCAGCGUCCCAUGGCCUAGCCGCCCGCCCGGUGCCUCCCCCUGCUCCUGCAUGGCGGGACGGGCAGCGCCUCCUGCGGCCCCUCCAG; value = 0.768
Sequence = CAAAGGGCAAGUCAGAAGUUGUUUAUAAAUUACAAAAUAAAGGCAUAUUAUGAACUCUUAUUUUCUGGUUAUAUGACAUUGUCUGAGCUCACUGUGGCAGUGGAGCACAU; value = 0.483
Sequence = GAUGGAAAACAUGCAUAGACACAAACCCCCUGCCUUAUGUGGAAAUCAUAGCCCCCUGCCGCUCAGCCUUGUACAUAGACCUAUCCCUCCCUGCCCUGGUCCUCUUCCUG; value = 0.836
Sequence = GUUUUGUUAAUUACACCAUAAUGCUAAUUUAAAGAGACUCCAAAUCUCAAUGAAGCCAGCUCACAGUGCUGUGUGCCCCGGUCACCUAGCAAGCUGCCGAACCAAAAGAA; value = 0.248
Sequence = GGACGUUUUUACCCGUUCCGUAGACUCUGUAACUGUCAGCCCAGUUUGCCUCUGCUGACUCCUGGCAUCACCUCCUGGGACACUUGCUGUCUUUUUUACUUGUCUCAUUU; value = 0.97
Sequence = GCAUAACCUAUGCCACGAUGGUGAGAUAAUGUGAAAAAGUGGUAUCCUCUGAUGUCAGCGUAUUAGUCUCAGUUUACAAAGUACUUAAUAAAACUAACUACUGUAAAACC; value = 0.296
Sequence = AUUUUGCAAUAAUCUCUUUUCCCUUGUCAUGCAAGCCAAAAAUAUACCAGUAAAACAGAUUCUGACGUGUUUGUAGUUAUCAAAUGAAUGGCUCGAAACACUUCUCAAAA; value = 0.501
Sequence = UUUCUAAGGAUUUGUUUACUUUUUGUGUUCUGUUUUGCUGUAUUAAAAACUUGUCCUUUUCCUUAAAUCAAAGUAGGACUCGAGUCCUCGUUUUUCACGCUGGCUUUGUU; value = 0.889
Sequence = UUAUAACUAGUUAGUUAUCACCUCGUCCCUUAAAGUCAGUGACCUCCUGUGUUUGAUGUAUAUUACAUAGAGUCUUAAGUCAGUGUACAGUUCCACUGGAAUUUGACAGU; value = 0.528
